Assay results of several laboratories.
Every numbered part comes from another study and shows a few of its results, in no order. Substitutions count along the parent as printed.
Chain of UniProt O15294 (whole entry, looked up): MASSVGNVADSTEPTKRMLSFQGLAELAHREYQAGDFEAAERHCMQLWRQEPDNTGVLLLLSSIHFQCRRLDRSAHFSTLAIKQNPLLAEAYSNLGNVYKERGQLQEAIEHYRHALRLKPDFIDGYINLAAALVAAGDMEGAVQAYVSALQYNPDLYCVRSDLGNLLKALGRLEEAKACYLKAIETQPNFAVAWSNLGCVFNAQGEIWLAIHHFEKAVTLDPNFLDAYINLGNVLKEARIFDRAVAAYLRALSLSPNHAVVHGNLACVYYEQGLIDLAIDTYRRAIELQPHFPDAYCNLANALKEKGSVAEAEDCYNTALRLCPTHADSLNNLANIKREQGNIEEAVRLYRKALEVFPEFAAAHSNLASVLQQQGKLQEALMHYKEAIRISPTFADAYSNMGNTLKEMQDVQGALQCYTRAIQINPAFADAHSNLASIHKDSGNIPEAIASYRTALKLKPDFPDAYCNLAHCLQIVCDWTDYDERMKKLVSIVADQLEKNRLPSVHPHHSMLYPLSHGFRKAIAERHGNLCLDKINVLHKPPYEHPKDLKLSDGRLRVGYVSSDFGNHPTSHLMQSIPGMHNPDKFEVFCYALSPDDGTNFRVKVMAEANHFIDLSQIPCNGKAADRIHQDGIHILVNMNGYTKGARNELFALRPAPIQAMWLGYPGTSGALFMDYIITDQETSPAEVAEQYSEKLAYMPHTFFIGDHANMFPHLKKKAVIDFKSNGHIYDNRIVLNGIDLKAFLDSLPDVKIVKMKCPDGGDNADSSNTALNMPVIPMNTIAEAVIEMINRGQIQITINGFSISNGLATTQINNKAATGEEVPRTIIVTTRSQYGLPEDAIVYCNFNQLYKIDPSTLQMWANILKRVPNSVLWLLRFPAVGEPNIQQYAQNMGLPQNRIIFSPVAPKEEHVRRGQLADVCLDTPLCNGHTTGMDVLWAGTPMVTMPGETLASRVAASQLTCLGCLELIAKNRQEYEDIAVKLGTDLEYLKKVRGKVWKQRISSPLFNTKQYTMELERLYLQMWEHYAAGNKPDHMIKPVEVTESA

Series 1 — method: RNA Bind-n-Seq; form: RNA; sample: in vitro; tested at: not given; baseline: input RNA pool; reading: higher = stronger binding
Target: RING finger protein unkempt homolog, zinc fingers 1-6, GST-SBP tag (UNK, Homo sapiens, UniProt Q9C0B0, residues 30-357)
Setting: RNA with constant flanks, human and mouse sites, ends assumed
Shared flanks, not repeated: GGGAGUUCUACAGUCCGACGAUC … CAACAGAGGAUUGAGCAUCA
Target sequence (chain): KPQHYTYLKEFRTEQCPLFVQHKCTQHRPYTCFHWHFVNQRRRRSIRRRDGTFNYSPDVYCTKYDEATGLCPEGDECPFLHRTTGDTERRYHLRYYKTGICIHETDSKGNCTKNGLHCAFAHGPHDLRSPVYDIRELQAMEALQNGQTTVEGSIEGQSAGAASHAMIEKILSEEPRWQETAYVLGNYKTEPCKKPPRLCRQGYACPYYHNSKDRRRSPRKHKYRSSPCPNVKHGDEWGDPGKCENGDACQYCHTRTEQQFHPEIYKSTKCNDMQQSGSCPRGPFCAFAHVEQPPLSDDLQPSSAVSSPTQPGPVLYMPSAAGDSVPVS
For `CAGUCCAUGGAAUCUUGUUGCAUUUUGGGGAGUUGUUUUGUGUCUUUACAUCUUGGAGUCUCUUAUACCCUUUGAUUUUUCUGGAGCCCAUGCCUUCCCACACAAAACAAGACAUGUAUG`, the bound/input enrichment was 0.212 ratio.
For `UAUUCCUCUUCUGGAGUAUGUGUUCUCUAUGAGUGCAAGGACCAGACCAUGAAACUUGUUGAGAGUUCAGGCUGUCCAGCUUUGGAUUGUCCAGAGUCUCAUCAGAUAACCUUGUCUCAC`, the bound/input enrichment was 0.0683 ratio.
With `UCGACUCCAGCGGCCCCGACAGCACGGAAGCAGCUGGAUAAAGAACAGGACCUUGCCUCAUAGUAUUCGAUCAGAUUCAGAAGAUAUCUGUUUAUUUACGAAGGAUGAACCCAAUUCAAC` the bound/input enrichment was 0.0738 ratio.
For `ACUGGUCCUGAGAUUCCUGAAUCAGGUCCCUCCUCCGGCAUGUGUCAGCGCAACCCCCAGGUCUGCGGCCCAGGACGCUGCAUUUCCCGGCCCAGCGGCUACACCUGCGCUUGCGACUCU`, the bound/input enrichment was 0.161 ratio.
`AGAAAAUAAAUGAUUUUUAAGUUAUGUCUAUUAAUCUGACUGUAGAUAUAUAUAUUUACCUCCUUAGUAAUGCAAGAAGUGUUUGUGGGAAGCAGAGAAGCAAGCAACUGUAUUUCUUGU` has a bound/input enrichment of 1.22 ratio.
`UGUUUUAAUUUAUUUGAGACUGGAUUUUAUCACUCAGAGUUAAACCCCAUGUGCAGCGAAGAAUCCGAAAGACCAGCAAAGAGAUUGAAGAUGGGCAUUGCUGUCCCCGAAUCCUUUAUG` gave a bound/input enrichment of 0.156 ratio.
The bound/input enrichment of `UCCGUAAACACAUUUUUGUUCUUAGUCUAUCUCUUGUACAAACGAUGUGCUUUGAAGAUGUUAGUGUAUAACAAUUGAUGUUUGUUUUCUGUUUGAUUUUAAACAGAGAAAAAAUAAAAG` is reported as 1.32 ratio.
With `GGUGAGAGUAUCAUGGUUGAACUCGCAGCUGGACCUUUUGGAAAUAAUGAAAAGUUGCCAGUAGUCAUCAGAGUACCAAAACUGAUCUAUUUCUCAGUAAUGAGUGUGUGCCUCAUGCCU` the bound/input enrichment was 0.167 ratio.

Series 2 — target: CCNB2, cyclin fold, Cln2 fusion (human); method: yeast growth competition, sequencing; sample: yeast; setting: strong parent motif; baseline: not given; reading: higher = stronger binding
Starting sequence: PKMYT1 docking peptide (human); SFEPRNLLSLFED
For `S9H`, “normalised enrichment score” read 1.03.
For `R5W`, “normalised enrichment score” read -0.186.
Under “normalised enrichment score”, `P4D` is recorded as -0.68.
For `P4N`, “normalised enrichment score” read -0.4.
`E3T`: “normalised enrichment score” 1.01.
`D13L`: “normalised enrichment score” 0.875.
Under “normalised enrichment score”, `E12H` is recorded as 0.12.
`E3L`: “normalised enrichment score” 1.3.

Series 3 — method: protein-binding microarray; form: double-stranded DNA, one strand shown; sample: in vitro; tested at: 2540 nM top; setting: 60-bp whole probe; added: salmon DNA 0.4 mg/ml; baseline: random background probes; reading: higher = stronger binding; shared flanks, not repeated: GCCTAGCAC … GTCTTGATTCGCTTGACGCTGCTG
Target: Interferon regulatory factor 3, full length, phosphomimetic (IRF3, Homo sapiens, UniProt Q14653, residues 1-427, S386D/S396D/S398D/S402D/T404D/S405D)
Residues (chain): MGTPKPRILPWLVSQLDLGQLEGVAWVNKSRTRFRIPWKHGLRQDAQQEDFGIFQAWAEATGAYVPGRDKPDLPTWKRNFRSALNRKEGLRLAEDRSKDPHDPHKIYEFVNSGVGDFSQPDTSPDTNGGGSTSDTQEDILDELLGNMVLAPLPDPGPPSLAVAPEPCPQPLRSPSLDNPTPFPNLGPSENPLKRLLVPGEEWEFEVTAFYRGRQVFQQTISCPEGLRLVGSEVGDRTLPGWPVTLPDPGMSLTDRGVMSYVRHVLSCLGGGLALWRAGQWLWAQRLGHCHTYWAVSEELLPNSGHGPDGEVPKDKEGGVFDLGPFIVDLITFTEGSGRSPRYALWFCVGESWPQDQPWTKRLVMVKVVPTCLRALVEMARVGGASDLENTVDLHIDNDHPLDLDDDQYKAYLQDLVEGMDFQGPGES
`TCACATTTATATCTTTGACTGTGCTAG` — result for “fitted relative affinity”: 1.1 z-score.
`TGGGAAATTCCTCTGAGGCAGTGCTAG`: “fitted relative affinity” -0.174 z-score.
Under “fitted relative affinity”, `GACGATTTCGGATATCGAGACGTGCTA` is recorded as 2.95 z-score.
`TTAGGACTCGGACTGGGTTAGTGCTAG` — result for “fitted relative affinity”: -0.781 z-score.
Under “fitted relative affinity”, `TCATTTTTCAAGAAACAGACTGTGCTA` is recorded as 1.35 z-score.
Under “fitted relative affinity”, `CTTCTTTTGCTAATTTTTTTGTGCTAG` is recorded as 2.77 z-score.
Under “fitted relative affinity”, `TTAGGTATCGGGTACCGGTTAGTGCTA` is recorded as 1.32 z-score.
`GACGATCTCAGTTTCGATACGTGCTAG`: “fitted relative affinity” 4.05 z-score.

Further values, each from its own experiment
Under “minimum log2 enrichment ratio”, `HQHPHGQYKEQIGHY` is recorded as 2.84 (UDP-N-acetylglucosamine--peptide N-acetylglucosaminyltransferase 110 kDa subunit (OGT, Homo sapiens, UniProt O15294); binding, phage display NGS; peptide; panning round 2; baseline: input library).
